Published values gathered from unrelated publications.
Parts stem from different laboratories: compare values within a part only. pIC50: −log10 of the molar value.
UniProt P45984, sequence (whole entry, looked up): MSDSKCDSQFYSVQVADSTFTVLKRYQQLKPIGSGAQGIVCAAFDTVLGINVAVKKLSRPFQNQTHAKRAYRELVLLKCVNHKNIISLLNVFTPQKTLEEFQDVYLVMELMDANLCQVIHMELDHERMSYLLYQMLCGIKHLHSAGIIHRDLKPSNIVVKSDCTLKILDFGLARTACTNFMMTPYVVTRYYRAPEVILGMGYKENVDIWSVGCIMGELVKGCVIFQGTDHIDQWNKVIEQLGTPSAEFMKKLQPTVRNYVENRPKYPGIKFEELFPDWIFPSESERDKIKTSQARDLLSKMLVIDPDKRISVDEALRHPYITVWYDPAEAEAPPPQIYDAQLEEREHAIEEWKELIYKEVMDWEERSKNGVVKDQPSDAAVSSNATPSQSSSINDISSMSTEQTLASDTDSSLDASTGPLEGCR
UniProt P11802, sequence (whole entry, looked up): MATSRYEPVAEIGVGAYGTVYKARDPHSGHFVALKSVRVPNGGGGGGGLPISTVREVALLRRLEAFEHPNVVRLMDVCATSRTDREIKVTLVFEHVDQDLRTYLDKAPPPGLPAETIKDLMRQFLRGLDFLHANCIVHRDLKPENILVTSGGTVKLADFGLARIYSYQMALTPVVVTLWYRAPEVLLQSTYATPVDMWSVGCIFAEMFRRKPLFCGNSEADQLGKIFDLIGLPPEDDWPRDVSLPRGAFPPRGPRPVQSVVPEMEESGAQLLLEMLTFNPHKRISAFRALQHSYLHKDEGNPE
UniProt P41240, sequence (whole entry, looked up): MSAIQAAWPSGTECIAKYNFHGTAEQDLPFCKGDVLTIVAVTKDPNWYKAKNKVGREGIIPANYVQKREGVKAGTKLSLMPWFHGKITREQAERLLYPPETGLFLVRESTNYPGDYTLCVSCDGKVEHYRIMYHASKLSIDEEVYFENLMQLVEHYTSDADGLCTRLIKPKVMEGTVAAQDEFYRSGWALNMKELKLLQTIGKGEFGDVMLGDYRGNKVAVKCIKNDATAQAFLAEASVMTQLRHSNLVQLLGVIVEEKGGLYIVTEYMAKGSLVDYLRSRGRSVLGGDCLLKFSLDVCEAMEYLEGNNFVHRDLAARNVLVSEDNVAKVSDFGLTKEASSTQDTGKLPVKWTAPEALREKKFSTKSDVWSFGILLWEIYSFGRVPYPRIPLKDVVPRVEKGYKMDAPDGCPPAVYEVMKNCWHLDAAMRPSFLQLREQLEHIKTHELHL
UniProt P08922, sequence (whole entry, looked up): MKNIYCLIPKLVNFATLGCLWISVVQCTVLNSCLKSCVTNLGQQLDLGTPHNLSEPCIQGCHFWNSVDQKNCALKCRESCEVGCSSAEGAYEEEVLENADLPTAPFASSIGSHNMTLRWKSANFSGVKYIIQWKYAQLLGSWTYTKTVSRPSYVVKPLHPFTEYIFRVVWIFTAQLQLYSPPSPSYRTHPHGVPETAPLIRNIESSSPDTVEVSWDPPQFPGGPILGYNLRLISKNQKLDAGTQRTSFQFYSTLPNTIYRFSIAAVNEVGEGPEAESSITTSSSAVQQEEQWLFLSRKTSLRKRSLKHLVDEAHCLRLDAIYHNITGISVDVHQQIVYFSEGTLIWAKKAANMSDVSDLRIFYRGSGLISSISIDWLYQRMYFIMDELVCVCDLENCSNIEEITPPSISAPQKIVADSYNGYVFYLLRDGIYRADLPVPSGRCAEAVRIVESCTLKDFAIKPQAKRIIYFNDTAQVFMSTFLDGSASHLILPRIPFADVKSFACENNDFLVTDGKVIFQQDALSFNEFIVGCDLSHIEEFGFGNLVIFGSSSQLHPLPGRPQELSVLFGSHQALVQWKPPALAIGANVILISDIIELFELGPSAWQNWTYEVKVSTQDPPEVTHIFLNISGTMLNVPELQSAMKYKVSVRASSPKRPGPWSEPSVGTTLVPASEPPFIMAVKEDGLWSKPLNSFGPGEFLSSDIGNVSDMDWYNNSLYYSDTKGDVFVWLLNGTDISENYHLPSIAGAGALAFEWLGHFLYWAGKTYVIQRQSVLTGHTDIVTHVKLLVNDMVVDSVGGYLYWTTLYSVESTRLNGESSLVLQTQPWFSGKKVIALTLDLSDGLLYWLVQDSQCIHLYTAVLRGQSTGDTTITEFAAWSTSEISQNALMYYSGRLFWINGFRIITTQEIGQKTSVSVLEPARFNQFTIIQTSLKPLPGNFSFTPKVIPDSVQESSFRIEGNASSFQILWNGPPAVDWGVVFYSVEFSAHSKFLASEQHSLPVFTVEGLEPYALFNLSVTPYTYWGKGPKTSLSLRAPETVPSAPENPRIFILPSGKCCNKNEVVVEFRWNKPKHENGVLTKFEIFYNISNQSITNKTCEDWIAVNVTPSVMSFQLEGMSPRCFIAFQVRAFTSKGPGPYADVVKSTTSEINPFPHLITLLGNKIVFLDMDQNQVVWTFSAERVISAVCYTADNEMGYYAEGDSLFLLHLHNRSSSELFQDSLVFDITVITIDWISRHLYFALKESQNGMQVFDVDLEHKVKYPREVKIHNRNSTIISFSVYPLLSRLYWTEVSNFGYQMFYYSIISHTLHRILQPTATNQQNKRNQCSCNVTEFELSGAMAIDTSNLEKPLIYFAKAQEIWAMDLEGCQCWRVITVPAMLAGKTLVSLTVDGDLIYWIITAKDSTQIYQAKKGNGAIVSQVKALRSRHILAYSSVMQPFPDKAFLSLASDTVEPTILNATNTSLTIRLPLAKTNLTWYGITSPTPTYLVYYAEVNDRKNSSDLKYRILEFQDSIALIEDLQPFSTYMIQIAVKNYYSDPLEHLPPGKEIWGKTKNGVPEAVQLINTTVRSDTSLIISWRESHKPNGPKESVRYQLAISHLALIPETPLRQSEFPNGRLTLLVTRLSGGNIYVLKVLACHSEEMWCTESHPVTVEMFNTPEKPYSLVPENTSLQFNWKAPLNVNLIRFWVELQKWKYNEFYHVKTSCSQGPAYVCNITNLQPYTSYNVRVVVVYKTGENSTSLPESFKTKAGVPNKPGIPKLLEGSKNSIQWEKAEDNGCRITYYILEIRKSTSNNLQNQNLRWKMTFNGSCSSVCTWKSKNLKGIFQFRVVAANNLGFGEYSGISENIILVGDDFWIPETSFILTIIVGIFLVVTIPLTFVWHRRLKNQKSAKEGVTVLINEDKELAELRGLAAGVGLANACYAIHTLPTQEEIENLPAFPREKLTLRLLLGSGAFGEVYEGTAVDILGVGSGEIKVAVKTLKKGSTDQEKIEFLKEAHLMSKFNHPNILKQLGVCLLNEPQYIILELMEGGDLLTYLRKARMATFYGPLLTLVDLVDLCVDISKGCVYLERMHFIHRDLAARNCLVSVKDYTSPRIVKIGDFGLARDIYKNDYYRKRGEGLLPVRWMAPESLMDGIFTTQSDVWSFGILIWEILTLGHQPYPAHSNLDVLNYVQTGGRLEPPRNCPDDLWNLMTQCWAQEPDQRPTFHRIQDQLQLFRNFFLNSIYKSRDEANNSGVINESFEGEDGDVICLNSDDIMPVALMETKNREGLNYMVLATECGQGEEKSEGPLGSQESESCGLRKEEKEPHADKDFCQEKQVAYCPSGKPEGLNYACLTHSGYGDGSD

Sample 1
Target: Serine/threonine-protein kinase PAK 6 (PAK6, Homo sapiens, UniProt Q9NQU5)
UniProt Q9NQU5, sequence (whole entry, looked up): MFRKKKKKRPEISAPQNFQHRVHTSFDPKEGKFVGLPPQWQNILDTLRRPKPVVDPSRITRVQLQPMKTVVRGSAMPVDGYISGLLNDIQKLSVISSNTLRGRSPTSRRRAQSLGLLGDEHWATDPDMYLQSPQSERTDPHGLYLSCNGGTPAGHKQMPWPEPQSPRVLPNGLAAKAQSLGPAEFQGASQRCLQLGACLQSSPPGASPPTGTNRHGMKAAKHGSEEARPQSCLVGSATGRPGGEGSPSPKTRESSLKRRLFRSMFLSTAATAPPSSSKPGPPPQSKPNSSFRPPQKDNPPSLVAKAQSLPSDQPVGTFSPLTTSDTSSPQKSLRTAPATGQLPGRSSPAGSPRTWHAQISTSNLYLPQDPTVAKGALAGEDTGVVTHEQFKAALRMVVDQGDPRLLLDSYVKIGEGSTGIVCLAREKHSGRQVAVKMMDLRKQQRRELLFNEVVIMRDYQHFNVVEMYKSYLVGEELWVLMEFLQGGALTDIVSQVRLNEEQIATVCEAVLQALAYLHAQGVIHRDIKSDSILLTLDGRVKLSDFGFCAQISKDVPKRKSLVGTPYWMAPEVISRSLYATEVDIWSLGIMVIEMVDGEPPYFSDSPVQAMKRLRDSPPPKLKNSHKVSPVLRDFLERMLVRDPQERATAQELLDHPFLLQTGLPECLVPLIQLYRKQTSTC
Effect on: enzyme activity
Action: inhibitor
Concentration: 0.5 µM
Reference: control
Quantity: remaining activity
O=C(O)c1ccc2c3c1cccc3c(=O)n1c3ccccc3nc21: 103%
COc1ccc(OC)c2c(=S)c3ccccc3[nH]c12: 112%
N#CC(C#N)=C(N)/C(C#N)=C/c1ccc(O)cc1: 97%
COc1cc2ncnc(Nc3ccc(F)c(Cl)c3)c2cc1OCCCN1CCOCC1: 105%
CC(C)[C@H](CO)Nc1nc(Nc2cc(N)cc(Cl)c2)c2ncn(C(C)C)c2n1: 57.3%
Nc1ccc2ncnc(NCCc3ccc(Oc4ccccc4)cc3)c2c1: 105%
O=C(Nc1cccc(Nc2cc(Nc3cccc(C(F)(F)F)c3)ncn2)c1)C1CC1: 99.3%
O=c1c2ccccc2[nH]c(=S)n1CCN1CCC(=C(c2ccc(F)cc2)c2ccc(F)cc2)CC1: 98.4%
COc1cc2ncnc(Nc3ccc(Oc4ccccc4)cc3)c2cc1OC: 109%
O=C(CCCc1ccc(-c2ccccc2F)cc1)Nc1ccc(O)cc1: 108%
COc1ccc(C(=O)Nc2sc3c(c2C(N)=O)CCCC3)cc1OC: 85.7%
C#Cc1cccc(Nc2ncnc3cc(OCCOC)c(OCCOC)cc23)c1: 104%
O=C1NC(=O)C(c2cn(CCCO)c3ncccc23)=C1c1cnccn1: 78.2%
COc1cc2nccc(Oc3ccc(NC(=S)NC(=O)c4ccccc4C)cc3)c2cc1OC: 95.8%

Sample 2
Target: Beta-1 adrenergic receptor (ADRB1, Homo sapiens, UniProt P08588)
UniProt P08588, sequence (whole entry, looked up): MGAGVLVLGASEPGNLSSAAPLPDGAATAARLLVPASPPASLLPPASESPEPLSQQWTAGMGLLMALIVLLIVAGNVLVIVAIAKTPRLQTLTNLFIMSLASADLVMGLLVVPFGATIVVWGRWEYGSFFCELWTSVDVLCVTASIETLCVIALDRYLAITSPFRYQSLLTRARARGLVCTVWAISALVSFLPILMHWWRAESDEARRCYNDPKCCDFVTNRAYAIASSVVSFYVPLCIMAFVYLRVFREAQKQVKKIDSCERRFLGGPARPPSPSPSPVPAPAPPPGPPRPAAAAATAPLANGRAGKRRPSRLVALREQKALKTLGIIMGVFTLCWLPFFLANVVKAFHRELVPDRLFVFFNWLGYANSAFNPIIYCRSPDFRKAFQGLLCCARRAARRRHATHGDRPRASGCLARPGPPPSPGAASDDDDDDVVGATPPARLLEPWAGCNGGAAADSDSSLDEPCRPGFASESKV
Action: antagonist
Quantity: pIC50
Cc1noc2c(-c3cccnc3NCCCn3ccnc3)cc(-c3ccccc3)nc12: ≤ 4.00
Clc1ccc2c(c1)N=C(N1CCNCC1)c1ccccc1N2: ≤ 4.00
COc1ccccc1N1CCN([C@@H]2[C@H](O)[C@H](CO)O[C@@H]2CN[S+](C)(=O)[O-])CC1: ≤ 4.00
CCCCNCc1ccc(OCC(O)CN2CCSCC2)c(OC)c1 (stereo not drawn): ≤ 4.00
CC(O)c1ccc(N2CCN(C(O)[C@H](Cc3ccc(N(C)[S+](=O)([O-])c4cccc5cnccc45)cc3)N(C)C)CC2)cc1 (stereo partly drawn): ≤ 4.00

Sample 3
SMILES: CN(c1ccnc(CNc2nc(Nc3ccc4c(c3)CC(=O)N4)ncc2C(F)(F)F)n1)S(C)(=O)=O
Effect on: cell-free assay
Technique: competition with immobilised ligand
Concentration: 1 µM
Quantity: remaining binding
CSK (Homo sapiens, UniProt P41240): 74%
ROS1 (Homo sapiens, UniProt P08922): 43%
Cyclin-dependent kinase 4, with cyclin D1 (CDK4, Homo sapiens, UniProt P11802): 93%
MAPK9 (Homo sapiens, UniProt P45984): 79%
PAK6 (Homo sapiens, UniProt Q9NQU5): 71%

Sample 4
Host: mouse
Medium: microsomes or S9
Concentration: 2 µM
Time: 0.5 h
Quantity: remaining compound
COc1ccc(-c2cn3c4ccccc4nc3n2CCN2CCN(C)CC2)cc1: 2.96%
Cc1[nH]c(=O)[nH]c(=O)c1S(=O)(=O)N1CCC(C(=O)NCCC(C)C)CC1: 70%
COC(=O)c1c(C)n(C(C)=O)c2ccc(NS(=O)(=O)c3cccs3)cc12: 61.2%
Cc1ccc(C2C(C(=O)NC3CCCCC3)CCC(=O)N2C)cc1 (stereo not drawn): 9.07%
Brc1cc(-c2noc([C@H]3CCCO3)n2)c2ncnn2c1: 3.78%

Mixed results
CCCCC[C@@H](O)[C@H]1C(=O)O[C@H](C)[C@@H](O)\C=C/C=C\C=C/C=C\C=C(\C)[C@@H](O)C[C@H](O)C[C@H](O)C[C@H](O)C[C@H](O)C[C@H](O)C[C@@H]1O
inhibition (Calcium/calmodulin-dependent protein kinase type II subunit alpha (CAMK2A, Homo sapiens, UniProt Q9UQM7); enzyme activity, inhibitor; 10 µM): 16%

For quick reference, copied from above (sample 4):
COc1ccc(-c2cn3c4ccccc4nc3n2CCN2CCN(C)CC2)cc1: 2.96%
Cc1[nH]c(=O)[nH]c(=O)c1S(=O)(=O)N1CCC(C(=O)NCCC(C)C)CC1: 70%
COC(=O)c1c(C)n(C(C)=O)c2ccc(NS(=O)(=O)c3cccs3)cc12: 61.2%
Cc1ccc(C2C(C(=O)NC3CCCCC3)CCC(=O)N2C)cc1 (stereo not drawn): 9.07%
Brc1cc(-c2noc([C@H]3CCCO3)n2)c2ncnn2c1: 3.78%
